Values quoted from earlier work that unrelated publications cite.
± marks the error that the study gave.

| Compound | tested on | test | test system | conditions | measurement | value |
| --- | --- | --- | --- | --- | --- | --- |
| CC(=O)Nc1c(C(C)=O)c(=O)n(C)c2nc(-c3ccc(Cl)cc3Cl)c(-c3ccc(Cl)cc3)cc12 | ADRA2C | MSD Pharma Taiwan panel screen | – | – | Ki | 1.13 µM |
| CCNCCc1ccc(CN(CC)c2cc(OC)ccc2[C@@H]2CCc3cc(O)ccc3C2)cc1 | – | local investigator assessed | human, ER-positive HER2-negative breast cancer | concentration not given | clinical benefit rate | 20.6% |
| Cc1cc(Nc2nccc(C)n2)cc(-c2cnc([C@@]3(O)CC[C@H](C(=O)O)C(C)(C)C3)s2)c1 | FGR | – | – | kinase panel | IC50 | 0.185 µM |
| CCOC(=O)C1=C(C)NC(C)=C(C(=O)OC)C1c1cccc([N+](=O)[O-])c1 (centres unmarked) | Toxoplasma gondii | parasite growth | – | concentration not given, drug repurposing screen | activity class | inactive |
| CCOc1ccc(S(=O)(=O)Nc2ccc(Cl)cc2C#Cc2cnc(C(=O)O)cc2OC)c2ncccc12 | PTGER1 | – | – | – | IC50 | > 30 µM |
| CC1CS(=O)(=O)CCN1/N=C/c1ccc([N+](=O)[O-])o1 (centres unmarked) | Vero CCL-81 | – | – | – | IC50 | 998 ± 91 µM |
| CN1CCN(c2cnc3c(C4CCN(C(=O)c5ccc(OC(F)(F)F)cc5N)CC4)ncnc3c2)CC1 | MAPK7 | enzyme activity | – | with: 250 µM ATP | IC50 | 0.035 µM |
| C[C@@]1(O)CCC[C@H]1n1c(=O)c(C(F)F)cc2cnc(NC3CCN(S(C)(=O)=O)CC3)nc21 | – | – | mouse | oral, 50 twice daily | free Cmax | 1670 nM |

Some of these lines once more:
| Compound | tested on | test | test system | conditions | measurement | value |
| --- | --- | --- | --- | --- | --- | --- |
| CCOc1ccc(S(=O)(=O)Nc2ccc(Cl)cc2C#Cc2cnc(C(=O)O)cc2OC)c2ncccc12 | PTGER1 | – | – | – | IC50 | > 30 µM |
